# Assay results collected from several papers.
# Parts stem from different laboratories: compare values within a part only.
# Chain of UniProt P53778 (whole entry, looked up): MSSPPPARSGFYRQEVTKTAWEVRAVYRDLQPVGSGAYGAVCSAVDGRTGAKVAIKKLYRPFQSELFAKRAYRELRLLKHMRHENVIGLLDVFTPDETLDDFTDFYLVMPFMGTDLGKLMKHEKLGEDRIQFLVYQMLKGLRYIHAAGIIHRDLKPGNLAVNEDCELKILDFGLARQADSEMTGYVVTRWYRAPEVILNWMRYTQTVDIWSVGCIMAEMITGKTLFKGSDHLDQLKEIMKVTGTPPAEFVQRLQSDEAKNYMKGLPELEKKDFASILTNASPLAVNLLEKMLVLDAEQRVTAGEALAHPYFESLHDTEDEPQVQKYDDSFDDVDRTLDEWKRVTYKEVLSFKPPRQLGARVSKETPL
# Chain of UniProt P68400 (whole entry, looked up): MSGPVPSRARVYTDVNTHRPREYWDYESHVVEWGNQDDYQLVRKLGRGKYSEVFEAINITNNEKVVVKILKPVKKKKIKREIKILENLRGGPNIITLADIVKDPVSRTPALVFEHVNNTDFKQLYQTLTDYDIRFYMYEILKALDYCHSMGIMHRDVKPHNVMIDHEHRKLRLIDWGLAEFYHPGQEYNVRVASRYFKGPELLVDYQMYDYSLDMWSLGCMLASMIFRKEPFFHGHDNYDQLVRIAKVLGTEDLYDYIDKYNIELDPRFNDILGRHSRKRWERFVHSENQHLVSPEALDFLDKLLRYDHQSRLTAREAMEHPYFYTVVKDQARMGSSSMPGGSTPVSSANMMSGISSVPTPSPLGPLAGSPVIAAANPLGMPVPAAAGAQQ
# Chain of UniProt P51957 (whole entry, looked up): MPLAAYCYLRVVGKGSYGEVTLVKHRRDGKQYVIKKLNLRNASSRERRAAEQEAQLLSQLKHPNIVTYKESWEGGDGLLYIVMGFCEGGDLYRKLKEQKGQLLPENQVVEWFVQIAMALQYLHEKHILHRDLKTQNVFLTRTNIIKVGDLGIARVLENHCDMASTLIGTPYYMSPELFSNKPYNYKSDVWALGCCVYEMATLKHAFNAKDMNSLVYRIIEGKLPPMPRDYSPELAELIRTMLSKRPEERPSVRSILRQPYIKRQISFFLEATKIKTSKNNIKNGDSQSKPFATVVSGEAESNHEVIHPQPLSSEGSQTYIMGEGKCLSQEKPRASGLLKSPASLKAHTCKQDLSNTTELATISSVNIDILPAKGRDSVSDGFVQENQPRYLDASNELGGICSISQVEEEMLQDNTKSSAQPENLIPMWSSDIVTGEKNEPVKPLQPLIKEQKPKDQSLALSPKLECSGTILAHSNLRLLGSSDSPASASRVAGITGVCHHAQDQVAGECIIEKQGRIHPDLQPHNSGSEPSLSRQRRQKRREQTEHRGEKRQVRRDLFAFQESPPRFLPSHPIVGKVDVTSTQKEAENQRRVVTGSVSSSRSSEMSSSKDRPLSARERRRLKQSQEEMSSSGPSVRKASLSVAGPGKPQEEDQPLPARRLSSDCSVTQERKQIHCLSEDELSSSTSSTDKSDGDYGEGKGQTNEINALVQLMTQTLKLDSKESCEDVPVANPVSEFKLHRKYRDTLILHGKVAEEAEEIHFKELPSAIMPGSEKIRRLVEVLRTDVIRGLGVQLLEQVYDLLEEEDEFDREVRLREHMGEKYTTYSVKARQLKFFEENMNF
# Chain of UniProt P08922 (whole entry, looked up): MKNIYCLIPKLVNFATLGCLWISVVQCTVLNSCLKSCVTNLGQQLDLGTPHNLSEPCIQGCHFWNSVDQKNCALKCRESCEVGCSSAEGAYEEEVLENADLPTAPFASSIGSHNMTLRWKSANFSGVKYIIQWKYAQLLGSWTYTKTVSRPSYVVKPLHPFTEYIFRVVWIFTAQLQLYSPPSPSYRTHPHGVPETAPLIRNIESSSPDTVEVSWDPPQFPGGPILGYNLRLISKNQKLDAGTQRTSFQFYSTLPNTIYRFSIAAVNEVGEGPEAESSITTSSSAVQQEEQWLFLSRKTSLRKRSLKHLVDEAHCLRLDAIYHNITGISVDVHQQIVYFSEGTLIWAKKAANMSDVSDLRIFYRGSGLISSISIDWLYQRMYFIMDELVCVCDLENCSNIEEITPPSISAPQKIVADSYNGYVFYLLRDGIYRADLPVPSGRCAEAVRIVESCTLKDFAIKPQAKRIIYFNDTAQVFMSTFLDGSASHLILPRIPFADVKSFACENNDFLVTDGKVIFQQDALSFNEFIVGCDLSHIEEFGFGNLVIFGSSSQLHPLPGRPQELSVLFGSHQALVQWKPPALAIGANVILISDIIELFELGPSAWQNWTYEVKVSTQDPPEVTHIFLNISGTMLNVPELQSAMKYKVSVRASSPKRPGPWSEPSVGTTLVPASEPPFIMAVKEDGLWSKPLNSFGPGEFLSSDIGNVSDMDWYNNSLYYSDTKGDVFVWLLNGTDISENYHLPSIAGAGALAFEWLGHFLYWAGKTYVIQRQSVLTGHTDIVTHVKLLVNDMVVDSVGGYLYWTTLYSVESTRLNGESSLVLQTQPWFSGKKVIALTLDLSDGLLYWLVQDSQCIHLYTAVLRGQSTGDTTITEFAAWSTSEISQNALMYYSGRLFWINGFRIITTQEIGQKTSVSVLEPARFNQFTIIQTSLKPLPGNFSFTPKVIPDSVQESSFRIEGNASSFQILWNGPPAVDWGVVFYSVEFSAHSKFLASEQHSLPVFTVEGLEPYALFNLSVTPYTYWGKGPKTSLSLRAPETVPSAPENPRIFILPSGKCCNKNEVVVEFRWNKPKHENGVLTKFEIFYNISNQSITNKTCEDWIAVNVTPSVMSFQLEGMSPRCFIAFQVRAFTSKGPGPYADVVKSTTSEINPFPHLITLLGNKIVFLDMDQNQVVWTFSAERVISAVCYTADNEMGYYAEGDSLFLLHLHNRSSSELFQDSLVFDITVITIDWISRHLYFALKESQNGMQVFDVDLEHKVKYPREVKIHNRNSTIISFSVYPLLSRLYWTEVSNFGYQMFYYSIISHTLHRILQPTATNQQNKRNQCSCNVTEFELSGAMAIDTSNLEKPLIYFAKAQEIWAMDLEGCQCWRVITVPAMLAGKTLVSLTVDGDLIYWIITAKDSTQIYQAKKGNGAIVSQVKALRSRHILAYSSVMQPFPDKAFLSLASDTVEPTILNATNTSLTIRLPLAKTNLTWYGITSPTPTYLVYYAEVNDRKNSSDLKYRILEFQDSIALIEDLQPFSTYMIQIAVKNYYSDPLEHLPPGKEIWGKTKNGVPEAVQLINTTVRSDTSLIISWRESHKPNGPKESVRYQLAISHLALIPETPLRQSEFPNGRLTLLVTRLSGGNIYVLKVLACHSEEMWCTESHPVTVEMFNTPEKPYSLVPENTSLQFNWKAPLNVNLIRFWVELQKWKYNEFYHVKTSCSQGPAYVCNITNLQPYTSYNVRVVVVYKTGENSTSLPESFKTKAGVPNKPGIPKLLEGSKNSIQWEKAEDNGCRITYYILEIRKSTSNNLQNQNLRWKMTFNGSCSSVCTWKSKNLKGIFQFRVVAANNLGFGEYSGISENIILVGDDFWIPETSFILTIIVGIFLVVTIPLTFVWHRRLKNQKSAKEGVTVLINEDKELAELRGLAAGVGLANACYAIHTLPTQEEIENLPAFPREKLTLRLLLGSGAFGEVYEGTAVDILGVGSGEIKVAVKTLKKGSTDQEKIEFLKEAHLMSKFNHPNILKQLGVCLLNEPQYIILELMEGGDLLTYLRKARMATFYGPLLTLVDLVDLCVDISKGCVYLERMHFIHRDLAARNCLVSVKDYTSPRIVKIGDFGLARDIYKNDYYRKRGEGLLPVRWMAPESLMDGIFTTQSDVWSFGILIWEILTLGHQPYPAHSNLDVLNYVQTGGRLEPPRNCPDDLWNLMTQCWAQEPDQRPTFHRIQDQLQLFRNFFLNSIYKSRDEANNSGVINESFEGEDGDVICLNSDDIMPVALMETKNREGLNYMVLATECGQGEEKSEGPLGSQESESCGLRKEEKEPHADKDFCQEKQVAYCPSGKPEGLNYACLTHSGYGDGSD
# Chain of UniProt P45985 (whole entry, looked up): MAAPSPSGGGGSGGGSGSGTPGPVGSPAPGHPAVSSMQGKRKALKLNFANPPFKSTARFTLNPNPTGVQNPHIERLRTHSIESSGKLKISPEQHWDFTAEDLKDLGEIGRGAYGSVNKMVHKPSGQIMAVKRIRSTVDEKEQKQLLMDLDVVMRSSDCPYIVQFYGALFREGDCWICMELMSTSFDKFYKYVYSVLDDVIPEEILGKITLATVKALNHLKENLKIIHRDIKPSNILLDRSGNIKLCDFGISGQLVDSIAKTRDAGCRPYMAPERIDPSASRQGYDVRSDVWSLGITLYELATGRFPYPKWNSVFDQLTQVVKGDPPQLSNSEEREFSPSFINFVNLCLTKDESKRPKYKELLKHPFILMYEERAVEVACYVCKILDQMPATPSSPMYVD
# Chain of UniProt Q06187 (whole entry, looked up): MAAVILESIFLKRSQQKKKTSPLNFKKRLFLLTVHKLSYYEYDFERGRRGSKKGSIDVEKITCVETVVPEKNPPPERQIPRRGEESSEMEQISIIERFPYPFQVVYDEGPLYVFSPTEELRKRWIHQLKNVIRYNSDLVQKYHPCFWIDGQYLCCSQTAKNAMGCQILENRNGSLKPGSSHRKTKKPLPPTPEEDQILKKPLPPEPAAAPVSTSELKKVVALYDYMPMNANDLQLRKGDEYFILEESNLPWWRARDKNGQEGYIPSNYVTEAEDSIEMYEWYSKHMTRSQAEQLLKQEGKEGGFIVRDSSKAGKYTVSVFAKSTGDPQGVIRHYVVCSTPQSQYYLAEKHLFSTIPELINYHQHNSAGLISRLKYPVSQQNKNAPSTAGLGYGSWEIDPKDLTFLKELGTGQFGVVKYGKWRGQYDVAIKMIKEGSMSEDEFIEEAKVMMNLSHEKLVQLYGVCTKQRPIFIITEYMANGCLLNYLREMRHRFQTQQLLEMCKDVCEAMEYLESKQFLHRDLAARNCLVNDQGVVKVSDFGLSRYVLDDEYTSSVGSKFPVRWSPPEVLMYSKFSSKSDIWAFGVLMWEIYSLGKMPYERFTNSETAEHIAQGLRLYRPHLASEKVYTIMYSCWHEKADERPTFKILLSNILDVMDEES

# Series 1
# SMILES: O=C(NCc1ncc(C(F)(F)F)cc1Cl)c1ccc2c(c1)C1(CCS(=O)(=O)CC1)[C@H](C1CC1)N2S(=O)(=O)c1ccc(F)cc1
# Observed: cell-free assay
# Technique: competition with immobilised ligand
# Tested at: 1 µM
target,remaining binding [%]
"TLK2 (Homo sapiens, UniProt Q86UE8)",100
"STK32A (Homo sapiens, UniProt Q8WU08)",100
"Tyrosine-protein kinase ABL1, phosphorylated (ABL1, Homo sapiens, UniProt P00519, T315I)",90
"MAP2K4 (Homo sapiens, UniProt P45985)",75
"Ribosomal protein S6 kinase alpha-4, C-terminal kinase domain (RPS6KA4, Homo sapiens, UniProt O75676)",91
"FES (Homo sapiens, UniProt P07332)",100
"SIK3 (Homo sapiens, UniProt Q9Y2K2)",100
"MAP3K5 (Homo sapiens, UniProt Q99683)",100
"PRKAA1 (Homo sapiens, UniProt Q13131)",39
"MELK (Homo sapiens, UniProt Q14680)",54
"ROS1 (Homo sapiens, UniProt P08922)",100

# Series 2
# Cell line: HaCaT
# Tested at: 100 µM
# Time: 18 h
SMILES,viability
C[N+]1(C)CCC(=C(c2ccccc2)c2ccccc2)CC1,124%
O=C1c2c(O)cccc2Cc2cccc(O)c21,99.4%
CCCCN1CCCC[C@H]1C(=O)Nc1c(C)cccc1C,98.8%
CCn1cc(C(=O)O)c(=O)c2cc3c(cc21)OCO3,114%
COC1=C(OC)C(=O)C(C/C=C(\C)CC/C=C(\C)CC/C=C(\C)CC/C=C(\C)CC/C=C(\C)CC/C=C(\C)CC/C=C(\C)CC/C=C(\C)CC/C=C(\C)CCC=C(C)C)=C(C)C1=O,112%
CC(C)c1ccc2oc3nc(N)c(C(=O)O)cc3c(=O)c2c1,90.1%
N#CC(c1ccc(Cl)cc1)c1c(Cl)cc(-n2ncc(=O)[nH]c2=O)cc1Cl (stereo not shown),52.4%

# Series 3
# SMILES: CN(C)S(=O)(=O)c1ccc2c(c1)/C(=C/c1cc3c([nH]1)CCCC3)C(=O)N2
# Observed: enzyme activity
# Mode: inhibitor
# Tested at: 0.5 µM
# Baseline: control
target,remaining activity [%]
"PLK2 (Homo sapiens, UniProt Q9NYY3)",94.4
"WNK2 (Homo sapiens, UniProt Q9Y3S1)",101
"CSNK1A1 (Homo sapiens, UniProt P48729)",91.7
"IRAK4 (Homo sapiens, UniProt Q9NWZ3)",57.7
"STK38 (Homo sapiens, UniProt Q15208)",94.6
"AKT3 (Homo sapiens, UniProt Q9Y243)",96.7
"PRKCI (Homo sapiens, UniProt P41743)",95.9
"BTK (Homo sapiens, UniProt Q06187)",97.4
"MKNK2 (Homo sapiens, UniProt Q9HBH9)",84.1
"EPHA5 (Homo sapiens, UniProt P54756)",85.1
"MAP4K2 (Homo sapiens, UniProt Q12851)",20.8
"CHEK1 (Homo sapiens, UniProt O14757)",76.3
"PRKG1 (Homo sapiens, UniProt Q13976)",82.5
"NEK4 (Homo sapiens, UniProt P51957)",99.9
"MAPK12 (Homo sapiens, UniProt P53778)",103
"CSNK2A1 (Homo sapiens, UniProt P68400)",105
"KIT (Homo sapiens, UniProt P10721)",60.7
"PRKCD (Homo sapiens, UniProt Q05655)",95.5
"MAPK13 (Homo sapiens, UniProt O15264)",103
"Cyclin-dependent kinase 9, with cyclin T1 (CDK9, Homo sapiens, UniProt P50750)",95.9
"LRRK2 (Homo sapiens, UniProt Q5S007)",1.78
"MAP2K6 (Homo sapiens, UniProt P52564)",94.6

# Series 4
# Organism: Sarcocystis neurona
# Observed: parasite growth
# Tested at: 10 µM
# Time: 96 h
# Notes: first screen
# Baseline: untreated
SMILES,log2 fold change
Cc1c2oc3c(C)ccc(C(=O)N[C@@H]4C(=O)N[C@H](C(C)C)C(=O)N5CCC[C@H]5C(=O)N(C)CC(=O)N(C)[C@@H](C(C)C)C(=O)O[C@@H]4C)c3nc-2c(C(=O)N[C@@H]2C(=O)N[C@H](C(C)C)C(=O)N3CCC[C@H]3C(=O)N(C)CC(=O)N(C)[C@@H](C(C)C)C(=O)O[C@@H]2C)c(N)c1=O,-0.53
COc1ccnc(C[S+]([O-])c2nc3ccc(OC(F)F)cc3[nH]2)c1OC (stereo not shown),0.12
CCc1cccc2c3c([nH]c12)C(CC)(CC(=O)O)OCC3 (stereo not shown),0.29
COc1ccc2c(c1)c(CC(=O)O)c(C)n2C(=O)c1ccc(Cl)cc1,0.25
CCCc1nc(C(C)(C)O)c(C(=O)OCc2oc(=O)oc2C)n1Cc1ccc(-c2ccccc2-c2nnn[nH]2)cc1,-0.09
CCCc1nc2c(C)cc(-c3nc4ccccc4n3C)cc2n1Cc1ccc(-c2ccccc2C(=O)O)cc1,-0.0662

# For quick reference, copied from above (series 3):
target,remaining activity [%]
"CSNK2A1 (Homo sapiens, UniProt P68400)",105
"KIT (Homo sapiens, UniProt P10721)",60.7
"PRKCD (Homo sapiens, UniProt Q05655)",95.5
"MAPK13 (Homo sapiens, UniProt O15264)",103
"Cyclin-dependent kinase 9, with cyclin T1 (CDK9, Homo sapiens, UniProt P50750)",95.9
